Measurements gathered from unrelated publications.
Numbered parts are unrelated; each lists some results of a single study. Positions count from the first letter of the parent shown.

Series 1
Target: Sal-like protein 4, full length isoform B (SALL4, Homo sapiens, UniProt Q9UJQ4-2, residues 1-616)
Technique: universal PBM
Form: double-stranded DNA, one strand shown
Matrix: in vitro
Concentration: not given
Setting: 8-mer, flanks averaged, mean of replicates
Direction: higher = stronger binding
Quantity: E-score
AACGATCG: 0.0995
AATACTGA: 0.134
CATTTCTC: 0.0912
TGAAGCAA: 0.0694
TCTACCCA: -0.0616
AAGAGACC: -0.15
GTACCATA: 0.0965
TTACCCAA: 0.065
AGGGATGC: -0.154
CCAACCGG: -0.397
ATAACGTG: 0.247
GATTTAAC: 0.187
AGTGACAG: 0.0262
GCTAAAGA: 0.0962
ATCGTAGG: 0.0129
ATTTCCTC: 0.073
GAGTGTCC: -0.211
AAACAGTC: -0.0392
GACCAGGC: -0.295
CTGTTGGA: 0.0929

Series 2
Target: ABI1, truncated, D143A, DHFR fusion (Arabidopsis thaliana)
Technique: DHFR PCA, deep sequencing
Matrix: yeast
Setting: methotrexate growth selection, single substitutions
With: (+)-ABA 0.032 µM
Baseline: wild-type fitted maximum
Direction: higher = stronger binding
Quantity: relative binding score
Parent: PYL1, truncated, DHFR fusion (Arabidopsis thaliana); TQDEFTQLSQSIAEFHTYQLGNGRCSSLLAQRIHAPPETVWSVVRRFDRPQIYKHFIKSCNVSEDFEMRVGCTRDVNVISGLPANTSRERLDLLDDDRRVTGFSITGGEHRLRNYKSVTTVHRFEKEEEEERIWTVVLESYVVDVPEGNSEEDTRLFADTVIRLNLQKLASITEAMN
N165I: 3.7%
D96Q: -1.82%
K168T: 3.88%
S59L: 1.05%
L138V: -2.72%
G107P: -0.527%
Q10I: 6.14%
Y53T: -4.1%
A84R: 2.37%
T135Y: -3.06%
Q51H: 10.6%
R74H: 6.38%
T101F: 67.3%
V143R: -0.643%
L29G: 3.75%
D65A: 4.81%
E14H: -9.33%

Series 3
Target: RNA binding protein fox-1 homolog 2, RRM domain, GST-SBP tag (RBFOX2, Homo sapiens, UniProt O43251-10, residues 100-194)
Technique: RNA Bind-n-Seq
Form: RNA
Matrix: in vitro
Concentration: 365 nM
Setting: natural RNA segment, single round, ends assumed
Baseline: no-protein control
Direction: higher = stronger binding
Quantity: RBNS enrichment (R)
Constant ends, left off below: GGGAGUUCUACAGUCCGACGAUC … UGGAAUUCUCGGGUGCCAA
Target sequence (chain): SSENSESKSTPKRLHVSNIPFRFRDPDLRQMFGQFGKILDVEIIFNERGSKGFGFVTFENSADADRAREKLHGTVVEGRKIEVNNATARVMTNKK
GAGUUAUAAAUGAUGGUUUAGUUCUCAGGCAGCUACAAAUGCCUAUUUAUUCCCUAAUGUACCUGAACACUAGUACCAUAGAACUGAACCACCAUCUGUAUCAGCGCAUG: 1.3
UAGGUGAUGUAAAAUAACCGUACAAUAUUAUGCAUGCUAUCCCAUAAUGCUUAGUGACUGUAUGAUAUUACUCAGAGUUCUGUUAGACUUUUUUUCUGCCUCGGUUCUUA: 0.54
AAGAGUUAGACGUUUGUUAUCAUGCCCCAAAAUAGUUUGAGGUAACAUUUUUGGAGGUAGCUUCGUGCAUCAUAAACAACUUUCGUGCUCGUGUCUGACUCGAGCGGUAU: 0.675
UAUUGAAUUUAUUUCUUAUUAAAAUAUGUAGUUUUUAAGACUUUUUUUCUGACAGUAUUAUGUAAUUUUUUAGCGUGGGUAGAUGGGAGUGUCGCUUGUAUGUUAUCGUA: 2.4
UAGUGUCUGUAUAUUUGUGAUGCAAUGGUCUUGUAAAGGUUUUUAAUGAAAACUACCAUUAGCCAGUCUUUCUUACUGACAAUAAAUUAUUAAUAAAAUACUUGAGCUUU: 1.19
UCUUCAUUCAACUCAGAAGGCCUGAUCUGUGUAUAUUCUGGUGUGUAUUGUAUGGUAGCUCUUUGAGCCUUGGUUGGUCGACUCUAGUGUAAGUUUAAUUAAUUGUAUAU: 1.01
UGGUUCCCCUGCCCUCUCCCAUCUUUGAUUGGCUUGGUAUUUGGAGCUUCUGUUAACAUUAUAGAGACUCCUAGGAUGUGUGUUCAUGGCAUUAUAGCUUUUGAAGAAAG: 0.367
UUGAAGUAGACUGGAUAAGGGCCAGUAGCGACUUGCGACUAGACUUUAAACUUUGCUCUUUCAGGUGGAGGCUUCGUUUCUGGGAUCCCACUGCACCGCCAUUUCUUCCC: 0.277
GCUUUCAGCCUGCUGCCUAAAUCGGCAAAGGAACACAGCGGGAAAGAGAGAUCUGGGUCUUGGUAAUAUAAGGAAUCUAUUGGAGAGCCAGAAAAGGAAAGACACUGGGG: 0.866
GUAUGUUAAUAAUGUAUAAAAUGGCUAUCUUGUAAGCGUGCUGUCCUGGUACUAGUGUAGCGACUUUUUUUCUCCUCUUUCUUCUAGUACAUAUUGAUAGGUAUAACAUA: 1.08
GGCGUGAGCCACCGCACCCGGCCUCAAAUGGAAAUAUUUCACAGAGGAGUGGUUCAGUUUAGCCCUGCAAGACAUCUAUAACUUGACUGUUUGCUAAACCACAACUCUUU: 0.25
ACAAAGUCUAAUGCAUAAGCAGAACCGAAAAGCAGACCGACAAUUGGUUAACAAAUAAUUCUUUUUUUUUCUUUUUUGAUGUGUUGAGUCUUAUUUUUGUGGGGUUUUUU: 0.436

Series 4
Target: Protein C-ets-1 (ETS1, Homo sapiens, UniProt P14921, residues 1-441, K379A, full length assumed)
Chain of UniProt P14921 (whole entry, unmodified, looked up): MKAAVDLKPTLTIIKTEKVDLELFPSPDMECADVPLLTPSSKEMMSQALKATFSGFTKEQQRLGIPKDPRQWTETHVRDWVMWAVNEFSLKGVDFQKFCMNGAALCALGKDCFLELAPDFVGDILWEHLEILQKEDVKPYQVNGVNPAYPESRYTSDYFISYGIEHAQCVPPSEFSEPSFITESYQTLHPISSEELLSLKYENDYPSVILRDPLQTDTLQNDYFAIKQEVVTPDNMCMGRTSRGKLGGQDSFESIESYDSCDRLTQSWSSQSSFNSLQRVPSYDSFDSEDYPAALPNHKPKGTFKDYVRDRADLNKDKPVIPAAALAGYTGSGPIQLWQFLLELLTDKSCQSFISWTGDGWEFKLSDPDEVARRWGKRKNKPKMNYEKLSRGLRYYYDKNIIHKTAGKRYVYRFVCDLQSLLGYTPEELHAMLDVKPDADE
Technique: protein-binding microarray
Form: double-stranded DNA, one strand shown
Matrix: in vitro
Concentration: not given
Setting: k-mer, scored over probes, only values ≥0.25
Direction: higher = stronger binding
Quantity: E-score
CGCCCCGC: 0.341
CTAACGTA: 0.279
CCCCGACG: 0.28
CCGGTGGA: 0.403
ACCCGGTC: 0.375
AGCTTCCG: 0.254
GCACCGGA: 0.392
ACACTTGC: 0.289
TCGGTAAA: 0.342
CACCGGGG: 0.408
CGGTTATC: 0.283
GTCAAACA: 0.262
ATAATACA: 0.26
GTGTCATA: 0.307
CGTTAGAA: 0.267
ATAATTAC: 0.287
ATAGTACG: 0.276
AATATACA: 0.279
TGGTAACA: 0.251
CCCGGAAC: 0.312
GCCGGAAA: 0.406
ACCACAAC: 0.259
ACATATAC: 0.313
GCGTCGGA: 0.25
CACAATGG: 0.281

Series 5
Target: Histone acetyltransferase KAT6A, both winged helices, GST fusion (KAT6A, Homo sapiens, UniProt Q92794, residues 1-181)
Technique: protein binding microarray
Form: double-stranded DNA, one strand shown
Matrix: in vitro
Concentration: not given
Setting: 8-mer, flanks averaged, mean of 2 arrays, mostly near background
Baseline: not given
Direction: higher = stronger binding
Quantity: E-score
Target sequence (chain): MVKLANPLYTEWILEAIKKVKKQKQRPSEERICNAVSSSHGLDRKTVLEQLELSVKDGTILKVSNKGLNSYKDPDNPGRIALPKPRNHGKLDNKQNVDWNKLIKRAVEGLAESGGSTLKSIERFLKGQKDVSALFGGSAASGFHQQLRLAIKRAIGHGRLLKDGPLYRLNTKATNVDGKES
AAAGACCT: -0.0851
CGCGGTCA: 0.279
CGGGACTA: 0.173
ATTTGCTG: -0.0378
TCACGTGA: 0.0585
CTAATACC: 0.022
CAATTCAG: -0.134
AGGAATAT: -0.0796
AACTAAAT: -0.193
CTATCCAG: -0.124
CCGGAAAC: 0.194
CTGAATAA: -0.132
CAGACACA: -0.107
ACGCGCAT: 0.344
ACTCAGCC: -0.0848
AAAGAGGG: -0.178
AACGCTAC: 0.015
AATAGTTG: -0.108
AATAAAAA: 0.044
AATTCCAG: -0.148
AGTTTGAA: 0.0671
ACCCCTCT: -0.257
CTTATCAC: -0.107
GCGGGTTA: 0.24
TAGAGATA: -0.122

Series 6
Target: Centromere-binding protein 1, full length, His-tagged (CBF1, Saccharomyces cerevisiae, UniProt P17106, residues 1-351)
Chain of UniProt P17106 (whole entry, looked up): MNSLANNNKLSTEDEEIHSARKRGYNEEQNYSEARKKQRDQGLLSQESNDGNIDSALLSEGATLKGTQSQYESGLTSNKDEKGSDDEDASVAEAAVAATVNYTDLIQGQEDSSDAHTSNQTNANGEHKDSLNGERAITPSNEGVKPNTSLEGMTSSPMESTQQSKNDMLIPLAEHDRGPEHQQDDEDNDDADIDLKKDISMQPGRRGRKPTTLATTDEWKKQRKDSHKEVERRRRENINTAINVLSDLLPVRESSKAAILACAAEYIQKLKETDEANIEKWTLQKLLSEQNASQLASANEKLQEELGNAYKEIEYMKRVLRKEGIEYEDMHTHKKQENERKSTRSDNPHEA
Technique: competition protein-binding microarray
Form: double-stranded DNA, one strand shown
Matrix: in vitro
Concentration: 2 µM
Setting: whole 60-bp probe, lowest competitor level
With: Pho4 competitor, 0.05 µM
Direction: higher = stronger binding
Quantity: fluorescence intensity
Constant ends, left off below: … GTCTTGATTCGCTTGACGCTGCTG
GCAGGTTCATTTACCTATGTGACGGGAGCTTCCATC: 58.9 a.u.
GTTAATTAATCAAGCAACGTGCGGAGTTTTATCACA: 167 a.u.
CATCATATATGTCGGCACGTTTTTCCATTCAGGAAA: 304 a.u.
CAAAAATTAGAAATCAACGTGACGGTCTAGGGCTAC: 310 a.u.
GTTATTCGAGATTTGCACGTGGACCCTGAAGTCTTG: 1120 a.u.
CGGGGTTAAGTTTGTCACGTAACTTGCTTGCAGCAG: 92.6 a.u.
GTCTTGTCTCATTGGACCGTGGGTGTCCCCACTTCA: 67.2 a.u.
ACATCCTGCGAATCTCATGTGTGTACTGAATCCATC: 93.1 a.u.
TCGTTCCAGCCGTTCCACGTTTTTGTTATCTAAGCA: 96.9 a.u.
TGCAACAACAATGCCACTTAAAACTGGCTTAACTGT: 72.4 a.u.
CTAACGAAGGTTTGGCGTGTGGGTGACAAGCCAAGT: 62.8 a.u.
CTGGCGTCATAATTTCACGTGTTTTAATAGCCATCC: 1320 a.u.
GGAGCGTATTGTAACCAGATTTCCTTGGGCCAGAAG: 59.5 a.u.
AAATTACTAAGTTGAGGCGTGGGTGACGCCGTATGA: 70.2 a.u.
ACAAGCGGAGATTCACACGTTTAATTGGACCACTGG: 75.8 a.u.
CCATTTGGATATAAGCTTGTGACAGTGACAGTAGAG: 96.3 a.u.
CATACCCAACCTTTTCACGTGTGATAAGATATTTGT: 716 a.u.
TGCGCAACAACTTGACCTGTGGGTGTATGTCTAGAA: 63.9 a.u.
TGCGCAACAACTTAACACGTGTTTTTATGTCTAGAA: 2950 a.u.
CTTTTGATACTCAAATTCGTGCCGAACCGGGAAAGA: 76.9 a.u.
CATACCCAACCTTGTCACTTCACTTAAGATATTTGT: 88.3 a.u.
TGCGCAACAACTTGTACCGTGGGTGTATGTCTAGAA: 63 a.u.

Some of these lines once more (series 5):
ACGCGCAT: 0.344
TCACGTGA: 0.0585
CTATCCAG: -0.124
AATTCCAG: -0.148
ACTCAGCC: -0.0848
CAGACACA: -0.107
CTAATACC: 0.022
AACGCTAC: 0.015
TAGAGATA: -0.122
AAAGACCT: -0.0851
AACTAAAT: -0.193
GCGGGTTA: 0.24
CCGGAAAC: 0.194
AAAGAGGG: -0.178
